Published values collected from several papers.
Organism: Escherichia coli

| Compound | assay | system | setting | MIC |
| --- | --- | --- | --- | --- |
| C#CCNC(=O)C(C)(C)O/N=C(\C(=O)N[C@@H]1C(=O)N(S(=O)(=O)O)[C@H]1C)c1csc(N)n1 | agar dilution | CDC 1001728 NDM-1 |  | 16 µg/mL |
| CC(=O)N[C@@H](CC(C)C)C(=O)N[C@H]1CSSC[C@@H](C(=O)N2CCC[C@H]2C(N)=O)NC(=O)[C@H](CCCCN)NC(=O)[C@H](C(C)C)NC(=O)[C@H](CCCCN)NC(=O)CNC(=O)[C@H](CC(C)C)NC(=O)[C@H](Cc2ccccc2)NC(=O)[C@H](CCCCN)NC(=O)[C@H](CC(C)C)NC(=O)[C@H](CCC(=O)O)NC(=O)[C@H](Cc2ccccc2)NC(=O)[C@H](CCCNC(=N)N)NC(=O)[C@H](CCCCN)NC(=O)[C@H](CC(C)C)NC(=O)[C@H](CC(=O)O)NC(=O)[C@@H]2CCCN2C(=O)[C@H](CCCCN)NC(=O)[C@H](C(C)C)NC(=O)[C@H](CCCCN)NC(=O)[C@H](CCCCN)NC(=O)[C@H](CCCCN)NC1=O | broth dilution | laboratory strain | 24 h | > 40 µM |
| COc1ccc2c(c1OC)C[NH+]1CCc3cc4c(cc3C1C2)OCO4.[Cl][Fe-]([Cl])([Cl])[Cl] (stereo not shown) |  |  | 24 h, 37 °C | > 1600 µM |
| C=CCO/N=C(\C(=O)N[C@@H]1C(=O)N(S(=O)(=O)O)[C@H]1C)c1csc(N)n1 | agar dilution | CDC 1001728 NDM-1 |  | 16 µg/mL |
| CC[C@H](C)[C@H](NC(=O)[C@@H](CCCNC(=N)N)NC(=O)[C@H](CCCNC(=N)N)NC(=O)[C@H](Cc1ccccc1)NC(=O)[C@H](Cc1c[nH]c2ccccc12)NC(=O)[C@H](CCCNC(=N)N)NC(=O)[C@@H]1CCCN1C(=O)[C@H](CCCNC(=N)N)NC(=O)[C@@H]1CCCN1C(=O)[C@H](CC(C)C)NC(=O)[C@H](Cc1ccc(O)cc1)NC(=O)[C@@H]1CCCN1C(=O)[C@@H]1CCCN1C(=O)[C@H](CCCCN)NC(=O)[C@H](CC(=O)O)NC(=O)[C@@H](N)C(C)C)C(=O)N[C@@H](Cc1ccc(O)cc1)C(=O)N[C@@H](CC(N)=O)C(=O)N[C@H](CCCNC(=N)N)C(N)=O | broth microdilution | BW25113 | 18 h, 37 °C, 25% MHB2 | 32 µg/mL |
| N=C(N)NCCC[C@@H]1NC(=O)[C@H](CCCNC(=N)N)NC(=O)[C@@H](CCCNC(=N)N)NC(=O)[C@H](C(c2ccccc2)c2ccccc2)NC(=O)[C@H](C(c2ccccc2)c2ccccc2)NC(=O)[C@H](C(c2ccccc2)c2ccccc2)NC(=O)[C@H](CCCNC(=N)N)NC1=O |  | ATCC BAA-2452, NDM-1 CRE |  | 8 µg/mL |
| CC[C@H](C)[C@H](NC(=O)[C@@H](CCCNC(=N)N)NC(=O)[C@H](CCCNC(=N)N)NC(=O)[C@@H]1CCCN1C(=O)[C@@H]1CCCN1C(=O)[C@H](CCCNC(=N)N)NC(=O)[C@@H]1CCCN1C(=O)[C@H](CCCNC(=N)N)NC(=O)[C@@H]1CCCN1C(=O)[C@H](CC(C)C)NC(=O)[C@H](Cc1ccc(O)cc1)NC(=O)[C@@H]1CCCN1C(=O)[C@H](Cc1ccccc1)NC(=O)[C@H](CCCCN)NC(=O)[C@H](CC(=O)O)NC(=O)[C@@H](N)C(C)C)C(=O)N[C@@H](Cc1ccc(O)cc1)C(=O)N[C@@H](CC(N)=O)C(=O)N[C@H](CCCNC(=N)N)C(N)=O | broth microdilution | ATCC 25922 | 18 h, 37 °C, 25% MHB2 | 16 µg/mL |
| O=C(O)c1cn(C2CC2)c2cc(N3CCNCC3)c(F)cc2c1=O | broth dilution | drug-resistant |  | > 200 µM |
| COc1c(NC(=O)c2ccc(NC(=O)c3ccc(NC(=O)[C@H](CC(N)=O)NC(=O)c4ccc(NC(=O)[C@@H](N)Cc5ccccc5)cc4)cc3)c(OC)c2O)ccc(C(=O)O)c1O |  | pentapeptide repeat protein clone | 16 h, 37 °C | > 64 µg/mL |
| CC[C@H](C)[C@H](NC(=O)[C@@H](CCCNC(=N)N)NC(=O)[C@H](CCCNC(=N)N)NC(=O)[C@@H]1CCCN1C(=O)[C@@H]1CCCN1C(=O)[C@H](CCCNC(=N)N)NC(=O)[C@@H]1CCCN1C(=O)[C@H](CCCNC(=N)N)NC(=O)[C@@H]1CCCN1C(=O)[C@H](CC(C)C)NC(=O)[C@H](Cc1ccc(O)cc1)NC(=O)[C@H](Cc1ccccc1)NC(=O)[C@@H]1CCCN1C(=O)[C@H](CCCCN)NC(=O)[C@H](CC(=O)O)NC(=O)[C@@H](N)C(C)C)C(=O)N[C@@H](Cc1ccc(O)cc1)C(=O)N[C@@H](CC(N)=O)C(=O)N[C@H](CCCNC(=N)N)C(N)=O | broth microdilution | BW25113 | 18 h, 37 °C, 25% MHB2 | 16 µg/mL |
| O=C(O)CN(CC(=O)O)CP(=O)(O)O |  | ATCC 25922, no carbapenemase | 32 µg/mL, MIC of meropenem, together with: meropenem | ≤ 0.0625 µg/mL |
| CC[C@H](C)[C@H](NC(=O)[C@@H](CCC(=O)O)NC(=O)[C@H](CC(C)C)NC(=O)c1cccc(C(=O)O)n1)C(=O)N[C@H]1CCCCNC(=O)[C@H](CC(N)=O)NC(=O)[C@@H](CC(=O)O)NC(=O)[C@H](Cc2c[nH]cn2)NC(=O)[C@@H](Cc2ccccc2)NC(=O)[C@H]([C@@H](C)CC)NC(=O)[C@@H](CCCN)NC1=O |  | ATCC 25922 | 18 h, 37 °C, 0.3 mM ZnSO4 LB | > 64 µg/mL |
| CC[C@H](C)[C@H](NC(=O)CNC(=O)[C@@H](NC(=O)CNC(=O)[C@@H](NC(=O)CNC(=O)[C@@H](NC(=O)[C@@H](NC(=O)[C@H](CCC(N)=O)NC(=O)[C@H](CCC(=O)O)NC(=O)[C@@H](NC(=O)[C@H](CC(C)C)NC(=O)[C@H](CCCNC(=N)N)NC(=O)[C@H](Cc1ccccc1)NC(=O)[C@@H](NC(=O)[C@H](CC(N)=O)NC(=O)[C@H](CCCCN)NC(=O)CNC(=O)[C@H](CCSC)NC(=O)[C@H](CCCCN)NC(=O)CNC(=O)[C@H](CC(C)C)NC(=O)[C@H](CCCCN)NC(=O)[C@H](CCCCN)NC(=O)CNC(=O)[C@H](Cc1ccccc1)NC(=O)[C@H](CCCCN)NC(=O)[C@H](CCCCN)NC(=O)[C@H](CC(C)C)NC(=O)[C@H](Cc1c[nH]c2ccccc12)NC(=O)CN)C(C)C)C(C)C)C(C)C)C(C)C)C(C)C)C(C)C)C(=O)N[C@@H](CC(N)=O)C(=O)N[C@@H](C)C(=O)N[C@@H](CC(C)C)C(=O)N[C@@H](CO)C(=O)O | broth microdilution | K88 |  | 0.64 log10 µg/mL |
| CC(C)C[C@@H](NC(=O)[C@H](NC(=O)[C@@H](CCCCN)NC(=O)[C@@H](CCCCN)NC(=O)[C@@H](CC(C)C)NC(=O)[C@@H](Cc1c[nH]c2ccccc12)NC(=O)[C@@H](CCCCN)NC(=O)[C@@H](Cc1c[nH]c2ccccc12)NC(=O)[C@@H](CC(C)C)NC(=O)[C@@H](CCCCN)NC(=O)[C@@H](CCCCN)NC(=O)[C@H](N)C(C)C)C(C)C)C(N)=O |  |  | 24 h, 37 °C, Mueller-Hinton broth, MgCl2 1 mM | 8 µM |
| CC[C@H](C)[C@H](NC(=O)[C@@H](CCCNC(=N)N)NC(=O)[C@H](CCCNC(=N)N)NC(=O)[C@H](CC(=O)O)NC(=O)[C@H](Cc1c[nH]c2ccccc12)NC(=O)[C@H](CCCNC(=N)N)NC(=O)[C@@H]1CCCN1C(=O)[C@H](CCCNC(=N)N)NC(=O)[C@@H]1CCCN1C(=O)[C@H](CC(C)C)NC(=O)[C@H](Cc1ccc(O)cc1)NC(=O)[C@@H]1CCCN1C(=O)[C@@H]1CCCN1C(=O)[C@H](CCCCN)NC(=O)[C@H](CC(=O)O)NC(=O)[C@@H](N)C(C)C)C(=O)N[C@@H](Cc1ccc(O)cc1)C(=O)N[C@@H](CC(N)=O)C(=O)N[C@H](CCCNC(=N)N)C(N)=O | broth microdilution | BW25113 | 18 h, 37 °C, 25% MHB2 | 8 µg/mL |
| CCCCCCCC(=O)N[C@@H](CCN)C(=O)N[C@H](C(=O)N[C@@H](CCN)C(=O)N[C@H]1CCNC(=O)[C@H]([C@@H](C)O)NC(=O)[C@H](CCN)NC(=O)[C@H](CCN)NC(=O)[C@H](CC(C)C)NC(=O)[C@@H](Cc2ccccc2)NC(=O)[C@H](CCN)NC1=O)[C@@H](C)O | broth microdilution | mcr-1, colistin-resistant |  | 2 µg/mL |
| CC[C@H](C)[C@H](NC(=O)[C@@H](NC(=O)[C@H](CCCCN)NC(=O)[C@H](CCCCN)NC(=O)[C@@H](NC(=O)[C@H](Cc1c[nH]c2ccccc12)NC(=O)[C@H](CCCCN)NC(=O)[C@H](Cc1c[nH]c2ccccc12)NC(=O)[C@H](CC(C)C)NC(=O)[C@H](CCCCN)NC(=O)[C@H](CCCCN)NC(=O)[C@@H](N)C(C)C)[C@@H](C)CC)C(C)C)C(N)=O |  |  | 24 h, 37 °C, Mueller-Hinton broth, NH4Cl 6 µM | 16 µM |
| CC[C@H](C)[C@H](NC(=O)[C@H](CCCCN)NC(=O)[C@@H](NC(=O)[C@@H](NC(=O)[C@H](CC(C)C)NC(=O)[C@H](CCCNC(=N)N)NC(=O)[C@@H](NC(=O)[C@H](CC(C)C)NC(=O)[C@H](CCCNC(=N)N)NC(=O)CNC(=O)[C@H](Cc1ccccc1)NC(=O)[C@@H](N)CCCNC(=N)N)[C@@H](C)CC)[C@@H](C)CC)C(C)C)C(=O)N[C@@H](C)C(=O)N[C@@H](CCCNC(=N)N)C(=O)N[C@@H](CCCNC(=N)N)C(=O)N[C@@H](C)C(=O)N[C@@H](Cc1c[nH]cn1)C(=O)N[C@@H](CCCNC(=N)N)C(=O)N[C@@H](C)C(=O)N[C@@H](CCCNC(=N)N)C(=O)N[C@@H](CO)C(=O)N[C@@H](C)C(=O)N[C@H](C(=O)N[C@@H](CCCCN)C(=O)N[C@@H](C)C(=O)N[C@@H](C)C(=O)N[C@@H](CO)C(=O)N[C@@H](CC(N)=O)C(=O)N[C@H](C(=O)N[C@@H](C)C(=O)N[C@@H](C)C(=O)N[C@@H](CC(C)C)C(=O)N[C@@H](C)C(=O)N[C@@H](Cc1c[nH]cn1)C(=O)NCC(=O)N[C@@H](C)C(N)=O)C(C)C)C(C)C | bacterial growth, broth microdilution | cation-adjusted Mueller Hinton broth | 18 h, 37 °C | ≤ 0.064 µM |
| CC[C@H](C)[C@H](N)C(=O)N1CCC[C@H]1C(=O)N[C@@H](Cc1ccccc1)C(=O)N[C@@H](Cc1c[nH]c2ccccc12)C(=O)N[C@@H](CCCNC(=N)N)C(=O)N[C@@H](Cc1c[nH]c2ccccc12)C(=O)N[C@@H](CC(C)C)C(=O)N[C@@H](CC(C)C)C(=O)N[C@@H](CCC(N)=O)C(=O)N[C@@H](CCCNC(=N)N)C(=O)N[C@@H](CC(C)C)C(=O)N1CCC[C@H]1C(=O)NCC(=O)O | broth microdilution | ATCC 25922 |  | 76.1 µM |

For quick reference, copied from above:
| Compound | assay | system | setting | MIC |
| --- | --- | --- | --- | --- |
| C=CCO/N=C(\C(=O)N[C@@H]1C(=O)N(S(=O)(=O)O)[C@H]1C)c1csc(N)n1 | agar dilution | CDC 1001728 NDM-1 |  | 16 µg/mL |
| CC[C@H](C)[C@H](NC(=O)[C@@H](CCCNC(=N)N)NC(=O)[C@H](CCCNC(=N)N)NC(=O)[C@H](Cc1ccccc1)NC(=O)[C@H](Cc1c[nH]c2ccccc12)NC(=O)[C@H](CCCNC(=N)N)NC(=O)[C@@H]1CCCN1C(=O)[C@H](CCCNC(=N)N)NC(=O)[C@@H]1CCCN1C(=O)[C@H](CC(C)C)NC(=O)[C@H](Cc1ccc(O)cc1)NC(=O)[C@@H]1CCCN1C(=O)[C@@H]1CCCN1C(=O)[C@H](CCCCN)NC(=O)[C@H](CC(=O)O)NC(=O)[C@@H](N)C(C)C)C(=O)N[C@@H](Cc1ccc(O)cc1)C(=O)N[C@@H](CC(N)=O)C(=O)N[C@H](CCCNC(=N)N)C(N)=O | broth microdilution | BW25113 | 18 h, 37 °C, 25% MHB2 | 32 µg/mL |
| N=C(N)NCCC[C@@H]1NC(=O)[C@H](CCCNC(=N)N)NC(=O)[C@@H](CCCNC(=N)N)NC(=O)[C@H](C(c2ccccc2)c2ccccc2)NC(=O)[C@H](C(c2ccccc2)c2ccccc2)NC(=O)[C@H](C(c2ccccc2)c2ccccc2)NC(=O)[C@H](CCCNC(=N)N)NC1=O |  | ATCC BAA-2452, NDM-1 CRE |  | 8 µg/mL |
